Measured values from different studies.
Lines come from different studies, so protocols differ. “And” joins repeats or separate records; there may be more than shown. Numbers after ± are the reported error.

CCCCCCCOc1ccc(CCC(N)(CO)CO)cc1C(F)(F)F.Cl  AUC(0-last) (Sprague-Dawley rat, heart; oral, 1 mg/kg, single dose): 3360 ng·h/g
CCc1cc(C(=O)NC)c2nccc(N3CCc4c(cc(Cn5ccnc5)cc4-c4cn(C)nc4C(F)(F)F)C3=O)c2c1  AUC(0-last) (Sprague Dawley rat, male, plasma; oral, 100 mg/kg twice daily, 7 days): 126 µg·h/mL
CCN(CC)Cc1cc(Nc2ccnc3cc(Cl)ccc23)ccc1O  confluence (COS-7; 100 µM, 24 h, 0.1% DMSO, unit not given; reference: control): 0.88 ± 0.08
CC(C)c1nc(N(C)S(C)(=O)=O)nc(-c2ccc(F)cc2)c1/C=C/[C@@H](O)C[C@@H](O)CC(=O)O  AUC(0-last) (Wistar albino rat, both sexes, plasma; oral, 20 mg/kg): 10.6 µg·h/mL and 15.4 µg·h/mL and 6.08 µg·h/mL
CC(=O)N[C@H]1CC[C@H](NC(=O)CN2CCN(c3nncc(-c4ccc(C)cc4)n3)CC2)CC1  AUC(0-last) (men aged ≥65 years, plasma; oral, 100 mg single dose, study): 4.72 µg·h/mL
CCCCCCCCc1ccc(CCC(N)(CO)CO)cc1  AUC(0-last) (male Sprague-Dawley rat, plasma; oral, 1 mg/kg, single dose): 0.0685 µg·h/mL
COc1cc2c(c(O)c1OC)C(=O)c1c(cc(C)c(O)c1OC)C2=O  cell viability (HepaRG co-cultured with HK-2; MTT; 16.67 µM, 24 h; reference: untreated control): 88.8 ± 10.6%
CN1CCC[C@H](CN2c3ccccc3Sc3ccccc32)C1.Cl  AUC(0-last) (female Wistar rats, brain; oral, 16 mg/kg single dose): 71.5 µg·h/mL
COc1ncc(-c2nc3c(n2C(C)C)[C@H](c2ccc(Cl)cc2)N(c2cc(Cl)cn(C)c2=O)C3=O)c(OC)n1  AUC(0-last) (LC-MS/MS, noncompartmental; human, plasma; oral, 150 mg, cycle 1 day 1, high-dose, geometric mean): 23.7 µg·h/mL
COc1cccc(-c2n[nH]c(SCc3ccccn3)n2)c1OC  AUC(0-last) (Sprague-Dawley rat, female, plasma; oral gavage, 100 mg/kg): 239 µg·h/mL
CC(C)c1nc(N(C)S(C)(=O)=O)nc(-c2ccc(F)cc2)c1/C=C/[C@@H](O)C[C@@H](O)CC(=O)O  AUC(0-last) (healthy volunteers, plasma; oral, 10 mg, day 8, BCRP probe, with: momelotinib, days 4-8, 200 mg, once daily): 0.101 µg·h/mL
CC[C@H](C)CCCCC(=O)N[C@@H](CCN)C(=O)N[C@H](C(=O)N[C@@H](CCN)C(=O)N[C@H]1CCNC(=O)[C@H]([C@@H](C)O)NC(=O)[C@H](CCN)NC(=O)[C@H](CCN)NC(=O)[C@H](CC(C)C)NC(=O)[C@@H](Cc2ccccc2)NC(=O)[C@H](CCN)NC1=O)[C@@H](C)O  AUC(0-last) (ESKD on long-term intermittent haemodialysis, plasma; intravenous infusion, 0.75 mg/kg single dose over 1 h, arithmetic mean): 31.3 µg·h/mL
NC1(C(=O)N[C@@H](CCO)c2ccc(Cl)cc2)CCN(c2nc[nH]c3nccc2-3)CC1  AUC(0-last) (human, plasma; oral, 400 mg single dose): 3.55 µg·h/mL and 8.49 µg·h/mL and 6.84 µg·h/mL and 5.98 µg·h/mL and 2.89 µg·h/mL and 4.54 µg·h/mL
C[C@H]1CN(C(=O)CC#N)[C@]12CCN(c1ncnc3[nH]ccc13)C2  AUC(0-last) (healthy Japanese males, plasma; oral, 25 mg single dose): 0.951 µg·h/mL
CCn1cc(C(=O)N2CCOCC2)c(=O)c2cc(NC3Cc4ccccc4C3)cnc21  AUC(0-last) (human, fasted; oral suspension, 5 mg single dose, arithmetic mean): 0.178 µg·h/mL
COc1cccc(-c2ccc(NC(=O)C3=C(C(=O)O)CCC3)c(F)c2)c1  apoptotic cells (COS-7; 10 µM, 24 h, 0.1% DMSO, unit not given; reference: vehicle control): 0.78 ± 0.21
C[C@@]1(c2cc(NC(=O)c3ccc(C#N)cn3)ccc2F)C=CSC(N)=N1  AUC(0-last) (young men, plasma; oral, 1 mg single dose): 0.0616 µg·h/mL

Excerpt of the above:
NC1(C(=O)N[C@@H](CCO)c2ccc(Cl)cc2)CCN(c2nc[nH]c3nccc2-3)CC1  AUC(0-last) (human, plasma; oral, 400 mg single dose): 3.55 µg·h/mL and 8.49 µg·h/mL and 6.84 µg·h/mL and 5.98 µg·h/mL and 2.89 µg·h/mL and 4.54 µg·h/mL
C[C@H]1CN(C(=O)CC#N)[C@]12CCN(c1ncnc3[nH]ccc13)C2  AUC(0-last) (healthy Japanese males, plasma; oral, 25 mg single dose): 0.951 µg·h/mL
